Experimental data from different studies.
Compare with care: the assays were run in different laboratories.

Structure (SMILES) = COC1CN([C@H]2CC[C@H]([C@@]3(C)Oc4c(Cl)cc(C(=O)NCc5c(SC)cc(C)[nH]c5=O)c(C)c4O3)CC2)C1; cell line = HT1197; read-out = cell growth or viability; technique = ATP luminescence; time = 12 days; GI50 = 50 nM
Structure (SMILES) = CC(=C(c1ccc(O)cc1)c1ccc(Cl)cc1)c1ccc(Cl)cc1; cell line = NCI-60 cell lines; technique = NCI five-dose screen; notes = mean over 60 lines; GI50 = 2510 nM
Structure (SMILES) = COc1cccc2c(NCc3ccccc3)nc(Nc3cccc(F)c3)nc12; cell line = HCT-15; read-out = cell growth or viability; time = 72 h; GI50 = 3700 nM
Structure (SMILES) = Cc1nc(F)ccc1-c1cc(Cn2ccn(C)c2=N)cc(C(=O)NCc2ccc(Cl)c(Cl)c2)c1; cell line = MV4-11 scrambled shRNA; read-out = cell proliferation; time = 72 h; GI50 = 2000 nM
Structure (SMILES) = CC(Cc1ccc(Cl)cc1)=C(c1ccc(Cl)cc1)c1ccc(OCCN(C)C)cc1; cell line = M14; read-out = cell growth or viability; technique = SRB; GI50 = 5190 nM
Structure (SMILES) = Nc1nc2cc(CC[C@H]3C[C@@H](n4ccc5c(N)ncnc54)[C@H](O)[C@@H]3O)ccc2cc1Br; cell line = DMS-53; read-out = cell growth or viability; technique = MTT; time = 6 days; GI50 = > 1000 nM
Structure (SMILES) = CC[C@H](C)[C@@H]([C@@H](CC(=O)N1C[C@@H](N=[N+]=[N-])C[C@H]1[C@H](OC)[C@@H](C)C(=O)N[C@@H](Cc1ccccc1)C(=O)OC)OC)N(C)C(=O)[C@@H](NC(=O)[C@@H](NC)C(C)C)[C@H](C)N=[N+]=[N-]; cell line = SW780; read-out = cell growth or viability; technique = resazurin; GI50 = 2.4 nM
Structure (SMILES) = CC(C)C1=C(O)C(=O)C2=C(C1=O)[C@H](O)[C@@H](O)[C@H]1C(C)(C)CCC[C@]21C; cell line = MCR5; read-out = cell growth or viability; technique = MTT; time = 72 h; GI50 = 91000 nM
Structure (SMILES) = C1=[N+]2CCCC[N+]3=Cc4ccc5[n]4[Au-]23[n]2c1ccc2-c1nc2ccccc2nc1-5.F[P-](F)(F)(F)(F)F; cell line = NCI60 leukemia cell lines; notes = mean of cell lines; GI50 = 1000 nM
Structure (SMILES) = CCC(=C(c1ccc(Cl)cc1)c1ccc(OCCCN(C)C)cc1)c1ccc(OC)cc1; cell line = NCI-60 cell lines; technique = NCI five-dose screen; notes = median over 60 lines; GI50 = 3090 nM
Structure (SMILES) = CC[C@H](C)[C@@H]([C@@H](CC(=O)N1C[C@@H](N=[N+]=[N-])C[C@H]1[C@H](OC)[C@@H](C)C(=O)N[C@@H](Cc1ccccc1)C(=O)OC)OC)N(C)C(=O)[C@@H](NC(=O)[C@@H](NC)C(C)C)C(C)C; cell line = SW780; read-out = cell growth or viability; technique = resazurin; GI50 = 1.9 nM
Structure (SMILES) = Nc1ncc(-c2cnn(C3CCNCC3)c2)cc1-c1nc2ccc(O)cc2o1; cell line = HEL 92.1.7; read-out = cell growth or viability; time = 72 h; GI50 = 2690 nM
Structure (SMILES) = CC[C@H](C)[C@H]1[C@H](OC)CC(=O)N2C[C@H](C[C@H]2[C@H](OC)[C@@H](C)C(=O)N[C@@H](Cc2ccccc2)C(=O)OC)NC(=O)CCCC(=O)N[C@@H](C)[C@H](NC(=O)[C@@H](NC)C(C)C)C(=O)N1C; cell line = SW780; read-out = cell growth or viability; technique = resazurin; GI50 = > 1000 nM
Structure (SMILES) = COc1cccc2c(NCc3ccccc3)nc(NCc3cccs3)nc12; cell line = HCT-15; read-out = cell growth or viability; time = 24 h; GI50 = 820 nM

Excerpt of the above:
Structure (SMILES) = CC[C@H](C)[C@H]1[C@H](OC)CC(=O)N2C[C@H](C[C@H]2[C@H](OC)[C@@H](C)C(=O)N[C@@H](Cc2ccccc2)C(=O)OC)NC(=O)CCCC(=O)N[C@@H](C)[C@H](NC(=O)[C@@H](NC)C(C)C)C(=O)N1C; cell line = SW780; read-out = cell growth or viability; technique = resazurin; GI50 = > 1000 nM
Structure (SMILES) = COc1cccc2c(NCc3ccccc3)nc(NCc3cccs3)nc12; cell line = HCT-15; read-out = cell growth or viability; time = 24 h; GI50 = 820 nM
